{"data": "Results pooled from the literature", "note": "Each line is one published result; not all experiments were run side by side. ± gives the spread as reported."}
{"Substance": "CC1(C)S[C@@H]2[C@H](NC(=O)[C@H](N)c3ccc(O)cc3)C(=O)N2[C@H]1C(=O)O", "target or system": "coagulase-negative Staphylococcus", "system": "community-acquired pneumonia patients", "conditions": "Fine score 70 or more", "endpoint": "sensitive strains", "value": "50%"}
{"Substance": "CCOC(=O)c1nc2ccccc2c(=O)n1Cc1cn(-c2ccc(C(=O)O)cc2)nn1", "target or system": "Candida tropicalis", "assay": "microbial growth, broth dilution", "system": "ATCC750", "conditions": "24 h", "endpoint": "IC50", "value": "290 µg/mL"}
{"Substance": "CC[C@H]1OC(=O)[C@H](C)[C@@H](O[C@H]2C[C@@](C)(OC)[C@@H](O)[C@H](C)O2)[C@H](C)[C@@H](O[C@@H]2O[C@H](C)C[C@H](N(C)C)[C@H]2O)[C@](C)(O)C[C@@H](C)CN(C)[C@H](C)[C@@H](O)[C@]1(C)O", "target or system": "coagulase-negative Staphylococcus", "system": "community-acquired pneumonia patients", "conditions": "Fine score below 70", "endpoint": "sensitive strains", "value": "66.7%"}
{"Substance": "CC[C@H](C)[C@H](NC(=O)[C@H](CCC(N)=O)NC(=O)[C@H](Cc1c[nH]cn1)NC(=O)[C@H](C)NC(=O)[C@H](CC(C)C)NC(=O)[C@H](CCCCN)NC(=O)[C@H](CCC(N)=O)NC(=O)[C@@H](NC(=O)[C@@H](NC(=O)[C@@H]1CSSC[C@H](NC(=O)CNC(=O)[C@H](Cc2ccccc2)NC(=O)[C@H](CO)NC(=O)[C@H](CCCNC(=N)N)NC(=O)[C@H](CC(C)C)NC(=O)CNC(=O)[C@H](CCC(N)=O)NC(=O)[C@H](Cc2ccccc2)NC(=O)[C@H](CC(N)=O)NC(=O)[C@H](CC(N)=O)NC(=O)[C@H](CCSC)NC(=O)[C@H](CO)NC(=O)[C@H](CCC(N)=O)NC(=O)[C@H](CCCNC(=N)N)NC(=O)[C@@H](N)Cc2ccc(O)cc2)C(=O)N[C@@H](CCCNC(=N)N)C(=O)N[C@@H](Cc2ccccc2)C(=O)NCC(=O)N[C@@H]([C@@H](C)O)C(=O)N1)[C@@H](C)O)C(C)C)C(=O)N[C@@H](Cc1ccc(O)cc1)C(=O)N[C@@H](CCC(N)=O)C(=O)N[C@@H](Cc1ccccc1)C(=O)N[C@H](C(=O)N[C@@H](CC(=O)O)C(=O)N[C@@H](CCCCN)C(=O)N[C@@H](CC(=O)O)C(=O)N[C@@H](CCCCN)C(=O)N[C@@H](CC(=O)O)C(=O)N[C@@H](CC(N)=O)C(=O)N[C@H](C(=O)N[C@@H](C)C(=O)N1CCC[C@H]1C(=O)N[C@@H](CCCNC(=N)N)C(=O)N[C@@H](CO)C(=O)N[C@@H](CCCCN)C(=O)N[C@H](C(=O)N[C@@H](CO)C(=O)N1CCC[C@H]1C(=O)N[C@@H](CCC(N)=O)C(=O)NCC(=O)N[C@@H](Cc1ccc(O)cc1)C(N)=O)[C@@H](C)CC)C(C)C)[C@@H](C)O", "system": "patients, biologic-resistant Crohn's disease", "conditions": "intravenous infusion, 10 ng/kg/min, 6 weeks, unit not given, with: biologic", "how to read": "baseline: baseline", "endpoint": "change in CDAI", "value": "-79 ± 62"}
{"Substance": "O=C(O)c1nc2ccccc2c(=O)n1Cc1cn(-c2cccc(F)c2)nn1", "target or system": "Candida tropicalis", "assay": "microbial growth, broth dilution", "system": "ATCC750", "conditions": "24 h", "endpoint": "IC50", "value": "175 µg/mL"}
{"Substance": "Nc1ccc(-c2cc3ccccc3[nH]2)cc1", "target or system": "HEK293 NF-κB luciferase reporter", "assay": "reporter gene, measured: NF-κB", "conditions": "50 µM, 6 h, with: TNFα", "endpoint": "inhibition", "value": "81.7 ± 4.2%"}
{"Substance": "CC[C@H]1OC(=O)[C@H](C)[C@@H](O[C@H]2C[C@@](C)(OC)[C@@H](O)[C@H](C)O2)[C@H](C)[C@@H](O[C@@H]2O[C@H](C)C[C@H](N(C)C)[C@H]2O)[C@](C)(O)C[C@@H](C)C(=O)[C@H](C)[C@@H](O)[C@]1(C)O", "target or system": "coagulase-negative Staphylococcus", "system": "community-acquired pneumonia patients", "conditions": "Fine score 70 or more", "endpoint": "sensitive strains", "value": "75%"}
{"Substance": "Fc1ccc(-c2cc3ccccc3[nH]2)cc1", "target or system": "HEK293 NF-κB luciferase reporter", "assay": "reporter gene, measured: NF-κB", "conditions": "50 µM, 6 h, with: TNFα", "endpoint": "inhibition", "value": "77.9 ± 1.4%"}
{"Substance": "Cc1ccc(NC(=O)c2ccc(CN3CCN(C)CC3)cc2)cc1Nc1nccc(-c2cncc(-c3oncc3C)c2)n1", "system": "mild-to-moderate Parkinson's disease patients", "conditions": "oral, 50 mg once daily, day 7, on anti-Parkinson medication", "how to read": "direction not given", "endpoint": "PGI-S score", "value": "2.2 ± 0.7"}
{"Substance": "SIYNFEKL", "assay": "flow cytometry, measured: CD44hi CD8+ T cells", "system": "peptide, OT-I CD8+ T cells, mouse", "conditions": "dose not given, primed 5 days, TGF-β1 from day 2 onward, with: 20 ng/mL TGF-β1", "endpoint": "IFN-γ+ TNF-α+ cells", "value": "0.24%"}
{"Substance": "CCCCCc1ccc(-c2cc3ccccc3[nH]2)cc1", "target or system": "HEK293 NF-κB luciferase reporter", "assay": "reporter gene, measured: NF-κB", "conditions": "50 µM, 6 h, with: TNFα", "endpoint": "inhibition", "value": "76.1 ± 4.1%"}
